Published values from different studies.
Parts stem from different laboratories: compare values within a part only.

Series 1
Target: Replicase polyprotein 1ab, nsp13 helicase (rep, Severe acute respiratory syndrome coronavirus 2, UniProt P0DTD1)
Action: inhibitor
Concentration: 20 µM
O=S1(=O)CCN(CN2CCS(=O)(=O)NC2)CN1 has an inhibition of 2.33%.
With CN1C(C(=O)Nc2ccccn2)=C(O)c2sccc2S1(=O)=O the inhibition was 4.98%.
With CNCc1cc(-c2ccccc2F)n(S(=O)(=O)c2cccnc2)c1 the inhibition was -0.78%.
COc1ccc(/C=C/C(=O)/C=C(O)/C=C/c2ccc(OC)c(OC)c2)cc1OC gave an inhibition of -16.9%.
CCCc1nc(C(C)(C)O)c(C(=O)O)n1Cc1ccc(-c2ccccc2-c2nnn[nH]2)cc1 gave an inhibition of -1.77%.
For CC(C)(C)NCC(O)COc1cc(Cl)ccc1Cl (stereo not shown), the inhibition was 2.31%.
Cc1ccc(F)cc1C(=O)Nc1ccc(C(=O)N2Cc3cccn3Cc3ccccc32)c(Cl)c1 has an inhibition of 13.4%.
With CN1CCc2c(c3ccccc3n2Cc2ccccc2)C1 the inhibition was 2.15%.
CN(C)C(=O)CCSC(SCCC(=O)O)c1cccc(/C=C/c2ccc3ccc(Cl)cc3n2)c1 (stereo not shown) has an inhibition of 12.6%.
CCC1(C2=NCCN2)Cc2ccccc2O1 (stereo not shown) has an inhibition of 2.24%.
With OC(c1ccccc1)(c1ccccc1)C1CCNCC1 the inhibition was 0.89%.
Oc1ccc2ccccc2c1 gave an inhibition of 3.89%.
With CC(Cc1ccccc1)(NC(=O)CN)c1ccccc1 (stereo not shown) the inhibition was -3.07%.
For Oc1ccc2ccccc2c1Cc1c(O)ccc2ccccc12, the inhibition was 7.89%.
The inhibition of CN(C)C(=O)c1cc2cnc(Nc3ccc(N4CCNCC4)cn3)nc2n1C1CCCC1 is reported as 12.2%.
With COc1cc(Br)c(S(=O)(=O)Nc2ccc(Cl)c(O[C@@H]3CCN(C)C3)c2)cc1OC the inhibition was 3.67%.
The inhibition of Cc1ccc(NCCCc2ccccc2)c(N)c1 is reported as 5.97%.
For CC(C)OC(=O)[C@H](C)N[P@@](=O)(OC[C@H]1O[C@@H](n2ccc(=O)[nH]c2=O)[C@](C)(F)[C@@H]1O)Oc1ccccc1, the inhibition was 5.99%.
For CN1CCN(C(=O)c2cc3cc(Cl)ccc3[nH]2)CC1, the inhibition was 2.85%.
NC(N)=NCCC[C@@H](N)C(=O)N[C@@H](CCCN=C(N)N)C(=O)N1CCC[C@H]1C(=O)N1C[C@H](O)C[C@H]1C(=O)NCC(=O)N[C@@H](Cc1cccs1)C(=O)N[C@@H](CO)C(=O)N1Cc2ccccc2C[C@@H]1C(=O)N1[C@H](C(=O)N[C@@H](CCCN=C(N)N)C(=O)O)C[C@@H]2CCCC[C@@H]21 has an inhibition of -6.08%.

Series 2
Target: Histone acetyltransferase KAT6A, winged helix 1, GST fusion (KAT6A, Homo sapiens, UniProt Q92794, residues 1-85)
Technique: protein binding microarray
Molecule type: double-stranded DNA, one strand shown
Sample: in vitro
Concentration: not given
Notes: 8-mer, flanks averaged, mean of 2 arrays, mostly near background
Reference: not given
Direction: higher = stronger binding
Residues (chain): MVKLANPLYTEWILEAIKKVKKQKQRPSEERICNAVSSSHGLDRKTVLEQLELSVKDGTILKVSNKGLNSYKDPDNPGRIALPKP
The E-score of `GCGTGGCA` is reported as 0.0672.
`AGTTATAT` has an E-score of -0.14.
For `ACATTAGC`, the E-score was 0.032.
With `AGAAGTAC` the E-score was -0.0666.
For `ACTCTACA`, the E-score was -0.132.
The E-score of `ACTTCGAC` is reported as -0.104.
The E-score of `ACACGCTC` is reported as 0.0739.
The E-score of `ATTAAACA` is reported as -0.155.

Series 3
Target: Sal-like protein 4, full length isoform A (SALL4, Homo sapiens, UniProt Q9UJQ4, residues 1-1053)
Sequence of UniProt Q9UJQ4 (whole entry, looked up): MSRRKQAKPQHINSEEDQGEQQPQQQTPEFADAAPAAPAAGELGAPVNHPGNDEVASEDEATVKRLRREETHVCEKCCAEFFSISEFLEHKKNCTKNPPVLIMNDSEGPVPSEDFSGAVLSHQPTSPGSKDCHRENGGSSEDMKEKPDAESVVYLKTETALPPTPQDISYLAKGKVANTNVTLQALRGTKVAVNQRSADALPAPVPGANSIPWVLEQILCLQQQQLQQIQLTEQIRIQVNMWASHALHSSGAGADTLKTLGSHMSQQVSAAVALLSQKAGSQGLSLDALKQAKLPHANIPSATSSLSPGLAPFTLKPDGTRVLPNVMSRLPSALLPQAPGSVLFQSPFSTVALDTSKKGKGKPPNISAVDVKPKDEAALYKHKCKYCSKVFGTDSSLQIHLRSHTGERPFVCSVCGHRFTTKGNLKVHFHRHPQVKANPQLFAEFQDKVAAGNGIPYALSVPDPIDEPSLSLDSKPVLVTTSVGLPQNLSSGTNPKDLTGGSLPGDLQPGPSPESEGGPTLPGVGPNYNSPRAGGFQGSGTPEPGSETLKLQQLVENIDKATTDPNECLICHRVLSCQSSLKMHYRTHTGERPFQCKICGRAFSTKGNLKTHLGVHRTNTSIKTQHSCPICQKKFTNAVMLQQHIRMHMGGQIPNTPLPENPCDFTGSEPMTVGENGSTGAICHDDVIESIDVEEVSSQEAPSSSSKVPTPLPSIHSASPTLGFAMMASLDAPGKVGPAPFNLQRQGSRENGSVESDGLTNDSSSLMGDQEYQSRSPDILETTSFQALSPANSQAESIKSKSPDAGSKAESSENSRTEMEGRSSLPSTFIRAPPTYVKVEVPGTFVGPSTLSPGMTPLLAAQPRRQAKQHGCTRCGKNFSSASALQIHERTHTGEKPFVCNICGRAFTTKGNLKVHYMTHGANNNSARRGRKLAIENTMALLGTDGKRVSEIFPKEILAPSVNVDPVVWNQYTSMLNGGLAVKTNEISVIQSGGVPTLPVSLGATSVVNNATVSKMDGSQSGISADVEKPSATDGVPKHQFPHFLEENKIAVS
Technique: universal PBM
Molecule type: double-stranded DNA, one strand shown
Sample: in vitro
Concentration: 600 nM
Notes: 8-mer, flanks averaged, mean of replicates
Direction: higher = stronger binding
For `CAACCAGA`, the E-score was 0.0324.
The E-score of `ACATTAGT` is reported as 0.0602.
`AAAGGGCG` gave an E-score of -0.183.
`AATAGAGA` has an E-score of 0.211.
For `ATGAATCC`, the E-score was 0.171.
`CTTTTCTC` has an E-score of 0.0897.
`CCAATAGC` gave an E-score of -0.0467.
The E-score of `CGCAGCCC` is reported as -0.266.

Series 4
Target: RNA binding protein fox-1 homolog 2, RRM domain, GST-SBP tag (RBFOX2, Homo sapiens, UniProt O43251-10, residues 100-194)
Technique: RNA Bind-n-Seq
Molecule type: RNA
Sample: in vitro
Concentration: 365 nM
Notes: natural RNA segment, single round, ends assumed
Reference: no-protein control
Direction: higher = stronger binding
Shared flanks, not repeated: GGGAGUUCUACAGUCCGACGAUC … UGGAAUUCUCGGGUGCCAA
`UAGGAAACCCACUUUAGUUGAAUGUGUUAAGUGAAAUACUUGUACUUCCCUCCCCCUCUGUCAACUGCUGUGAAUGCUGUAUGGUGUGUGUUCUCCUCUGUUACUGAUCU` — result for “RBNS enrichment (R)”: 2.5.
For `UUGUGCCCGAUGUCUGGCUCCCCUGCAGGAGGGAGGCUCCAGGGUAAGACAGGGCUGGCAGGAGCAGACUGCCUCAGCCCAUGUGCCCUGCCGGCCAGGGCGUGGGCUCC`, “RBNS enrichment (R)” read 0.497.
`AAGGUAGCUCACCUAACAAAGCUCCUCCAUCUCAGCAUGCCAGACCCACUUUGAAAUCUCACAGAAUCUUGCUGGUAAUGGUGACUUUAGAACUAGUAGACCCUUUUUCC`: “RBNS enrichment (R)” 1.3.
`ACAAAGAAGGCAGAGCCAGGAUAUAACUAGAAAAAGGAUGUCUUUUUUUUUUUUUUUACUCCCCCUCUAAACACUGCUGCUGCCUUAAUUUUAGAAAGCAGCUUACUAGU` — result for “RBNS enrichment (R)”: 0.393.
`UCCCCCAGCCAGGUCCCCACCAGGCCUGUCUCCCAGCGUUUGUCUAAUAAACGCACCCCUCCUAAAAACGCCUACGAAAACAGCUCCUCUCCUGGCACAUCUGCCAACAC` — result for “RBNS enrichment (R)”: 0.659.
For `GCUGCCAGGAUUGUCACUCCAAACCUUACUCUGAGCUCAUUAAUAAAAUAGAUUUAUUUUCCAGCUUUAGGAGUGAGUGUGGAUUUGGGCAGCAGAUUCAAGGCUGCAAA`, “RBNS enrichment (R)” read 0.437.
`GGAAAAGGAGCAGAGAGCUGUCCAUCUGGAUUGAUGGAAGAAAAGAGAACCUCAUCCAUGCCUGGAGAACAUCUAGAAAACCUUCAGCCAGCCUCCAGUGCUGUCGAGAG` — result for “RBNS enrichment (R)”: 0.462.
For `CGAAGGGCGUGUGGCCAUCGUGUCAGCAGAGAGAGUCUCUGUACACAGCCCCGUGAACCCUGAGGAGUGGAGUCAUACGCGAAGGGUGUGUGGCCAGGCUGCAGAGCUGC`, “RBNS enrichment (R)” read 0.381.

Single results of other studies
Concentration: 10 µM
NC(=O)c1ncn([C@@H]2O[C@H](CO)[C@@H](O)[C@H]2O)n1 has a GFP-positive cells of 89.4% (HEK-293T; pseudovirus infection, FDA-approved drug library screen; VSV pseudotyped with SARS-CoV-2 spike; 16 h; reference: vehicle-treated).
For CO/N=C(\C(=O)N[C@@H]1C(=O)N2C(C(=O)O)=C(CSC(=O)c3ccco3)CS[C@H]12)c1csc(N)n1.Cl, the inhibition was 2.3% (SARS-CoV-2; cytopathic effect; Vero E6).

Excerpt of the above (series 2):
The E-score of `GCGTGGCA` is reported as 0.0672.
`AGTTATAT` has an E-score of -0.14.
For `ACATTAGC`, the E-score was 0.032.
With `AGAAGTAC` the E-score was -0.0666.
For `ACTCTACA`, the E-score was -0.132.
The E-score of `ACTTCGAC` is reported as -0.104.
The E-score of `ACACGCTC` is reported as 0.0739.
